Measured values collected from several papers.
Lines come from different studies, so protocols differ. Several values in a cell are separate wells, animals, samples, runs or records. ± marks the error that the study gave.

COCCOC(=O)C1=C(C)NC(C)=C(C(=O)OC/C=C/c2ccccc2)C1c1cccc([N+](=O)[O-])c1 (stereo not drawn)  EC90 (Toxoplasma gondii; parasite growth; HFF, bradyzoite, glutamine-induced): 7.79 µM
O=C(O)CNC(=O)Cc1ccccc1  sarcomere length (ventricular cardiomyocytes, C57BL/6 mouse; dose not given, 0.388 s): 1.72 µm
c1ccc(-c2n[nH]cc2-c2ccnc3ccccc23)nc1  log2 fold change (kinase binding, competitor, MIB/MS competition, refers to: RCK2; Candida albicans cell lysate; 1 µM; reference: DMSO): 1.67
C[C@H]1C[C@H]2CSC(N)=N[C@@]2(c2nc(NC(=O)c3ccc(OC(F)F)cn3)cs2)CO1  percent change from baseline (refers to: Aβx-40; healthy adults, plasma; 160 mg single dose, 24 h post-dose; reference: placebo): -60.8%
CN[C@@H]1COc2c(S(=O)(=O)NC(=O)Nc3c4c(cc5c3CCC5)CCC4)cnn2C1  inhibition (refers to: IL-18; human participants, whole blood ex vivo; 900 mg twice daily, multiple doses, 1 h, IL-18, circulating, adjusted for, together with: LPS/ATP; reference: baseline): 99.6%
C[C@H](Oc1ccc(Br)cc1-c1ccon1)C(=O)O  CMAP amplitude (human, tibialis anterior muscle; 1200 mg single dose, 3.5 h post-dose): 0.199 mV
COc1ccc2c(c1)CC[C@@H]1[C@@H]2CC[C@]2(C)[C@@H](NCCCCCCN3C(=O)C=CC3=O)CC[C@@H]12  distance travelled (open field test; humanized UT (+/h+) mice, SAH model; dose not given): 39 m and 12 m and 35 m and 23 m
CCN(Cc1nc2c(N)nc3cc(-c4cc[nH]n4)ccc3c2[nH]1)C(C)=O  mean fold change (immunohistochemistry, refers to: CD163+ TAMs; patients with advanced solid tumours, injected tumour lesions; dose not given, monotherapy; reference: baseline): 1.54
OC(CCN1CCCCC1)(c1ccccc1)C1CC2C=CC1C2 (stereo not drawn)  change in EEG Alpha1-power Fz-Cz (resting-state EEG; healthy elderly humans; oral, 4 mg, eyes open, LS mean; reference: baseline): 2%
COc1nnc2ccc(N3CCC(c4ccc(OCCN5CCN(C)C(=O)[C@H]5C)cc4)CC3)nn12  time above HEXIM1 threshold (human patients; 30 mg once daily, 1.5-fold above baseline): 5.1 h
C=CCn1c(=O)c2cnc(Nc3ccc(N4CCN(C)CC4)cc3)nc2n1-c1ccc2c(n1)[C@@](O)(CC)CC2  tumour volume difference (MDA-MB-468 xenograft, CB17 SCID mice; oral, 80 mg/kg, day 56, once daily x 56): 174 ± 10.5 mm3
Cn1cc([C@H]2C[C@H]3CSC(N)=N[C@@]3(c3ccc(F)cc3F)CO2)cn1  brain Aβ40 level (refers to: Aβx-40; wild-type mouse, brain; subcutaneous, 10 mg/kg, 18 h): 2.58 ng/g
CN(C)C(=O)c1cc2cnc(Nc3ccc(N4CCNCC4)cn3)nc2n1C1CCCC1  GSEA enrichment score (RNA-seq GSEA, refers to: HALLMARK_NOTCH_SIGNALING; MB002 tumour; concentration not given, in vivo; reference: vehicle, direction not given): 0.3
N[C@@H](CC(=O)N1CCn2c(nnc2C(F)(F)F)C1)Cc1cc(F)c(F)cc1F  HbA1c change from baseline (ZDF rat; 10 mg/kg/day, 6 weeks; reference: baseline): 2.63 ± 0.16 % points
CC(=O)c1cnc2ccc(-c3cc(Cl)c(O)c(Cl)c3)nc2c1N[C@H]1CC[C@H](CN(C)C)CC1  RALF1-induced phosphorylation (phosphoproteomics, refers to: AHA1; Arabidopsis thaliana seedlings; concentration not given, together with: RALF1): decreased
COc1cc(Nc2ncc3c(n2)-c2ccc(Cl)cc2C(c2c(F)cccc2OC)=NC3)ccc1C(=O)O  relative tumour volume T/C (mouse, KT-10 Wilms tumour xenograft; oral, 10.4 mg/kg, day 7; reference: vehicle): 1.49
CC(C)NCC(O)c1ccc(O)c(O)c1 (stereo not drawn)  sarcomere length (ventricular cardiomyocytes, C57BL/6 mouse; dose not given, 0.828 s): 1.53 µm
COc1ccc(C2=N[C@@H](c3ccc(Cl)cc3)[C@@H](c3ccc(Cl)cc3)N2C(=O)N2CCNC(=O)C2)c(OC(C)C)c1  fractional shortening (echocardiography; Dmd C3333Y mouse; dose not given): 25.7% and 29.8% and 26.9% and 26.5% and 30.5%
C[C@]12CC[C@@H]3c4ccc(O)cc4CC[C@H]3[C@@H]1CC[C@@H]2O  mRNA level (RT-qPCR, refers to: CO; Arabidopsis thaliana ING1:FLAG seedlings; 20 µM, 6 h after treatment, sampled at ZT12, replicate rep1, unit not given; reference: TUB2): 0.0835
N#Cc1ccc2c(-c3ccncc3)c(-c3ccc(F)cc3)nn2c1  log2 fold change (kinase binding, competitor, MIB/MS competition, refers to: SCH9; Candida albicans cell lysate; 10 µM; reference: DMSO): -0.0863
CCCCCN1C[C@H](O)[C@@H](O)[C@H](O)[C@@H]1CO  number of significantly changed genes (mRNA sequencing; mouse Hexb-/-, hippocampus; 300 mg/kg/day; reference: untreated Hexb-/- mice): 0 genes
CCCCCCNc1nc(NC2CCN(C)CC2)c2cc(OC)c(OC)cc2n1  EC90 (Toxoplasma gondii; parasite growth, luciferase reporter; HFF, tachyzoite; 72 h): 2.84 µM
N#Cc1ccn2c(-c3ccncc3)c(-c3ccc(F)cc3)nc2c1  log2 fold change (kinase binding, competitor, MIB/MS competition, refers to: KIN2; Candida albicans cell lysate; 10 µM; reference: DMSO): -0.186
NC(=O)c1cnc2[nH]ccc2c1N[C@@H]1[C@@H]2CC3C[C@H]1C[C@@](O)(C3)C2  CD8+ central memory change (flow cytometry; Japanese healthy men, blood; oral, 30 mg twice daily, 72 h after day 7 dose; reference: baseline): 0.27%
Cc1n[nH]c2ccc(-c3cc(OC[C@@H](N)Cc4ccccc4)cnc3-c3ccoc3)cc12  log2 fold change (kinase binding, competitor, MIB/MS competition, refers to: CAK1; Candida albicans cell lysate; 10 µM; reference: DMSO): -2.18
Cn1cc(-c2ccc(-c3cncc(Cl)c3N3CCC4(CCNC4=O)CC3)cc2)cn1  log2 fold change (COLO 205; gene expression, microarray, refers to: CTSB mRNA; concentration not given, 6 h; reference: untreated cells): 2.24
Oc1ccccc1-c1n[nH]cc1-c1ccnc2ccccc12  log2 fold change (RCK2 (Candida albicans); kinase binding, MIB/MS competition; Candida albicans lysate; 10 µM; reference: DMSO): 0.25

For quick reference, copied from above:
COCCOC(=O)C1=C(C)NC(C)=C(C(=O)OC/C=C/c2ccccc2)C1c1cccc([N+](=O)[O-])c1 (stereo not drawn)  EC90 (Toxoplasma gondii; parasite growth; HFF, bradyzoite, glutamine-induced): 7.79 µM
O=C(O)CNC(=O)Cc1ccccc1  sarcomere length (ventricular cardiomyocytes, C57BL/6 mouse; dose not given, 0.388 s): 1.72 µm
c1ccc(-c2n[nH]cc2-c2ccnc3ccccc23)nc1  log2 fold change (kinase binding, competitor, MIB/MS competition, refers to: RCK2; Candida albicans cell lysate; 1 µM; reference: DMSO): 1.67
C[C@H]1C[C@H]2CSC(N)=N[C@@]2(c2nc(NC(=O)c3ccc(OC(F)F)cn3)cs2)CO1  percent change from baseline (refers to: Aβx-40; healthy adults, plasma; 160 mg single dose, 24 h post-dose; reference: placebo): -60.8%
